Measurements collected from several papers.
Parts stem from different laboratories: compare values within a part only. Substitutions count along the parent as printed.

Block 1
Target: CCND2, cyclin fold, Cln2 fusion (human)
Method: yeast growth competition, sequencing
Medium: yeast
Notes: weak parent motif
Reference: not given
Reading: higher = stronger binding
Parent: RBL2 docking peptide (human); STTRRRLFVENDS; partner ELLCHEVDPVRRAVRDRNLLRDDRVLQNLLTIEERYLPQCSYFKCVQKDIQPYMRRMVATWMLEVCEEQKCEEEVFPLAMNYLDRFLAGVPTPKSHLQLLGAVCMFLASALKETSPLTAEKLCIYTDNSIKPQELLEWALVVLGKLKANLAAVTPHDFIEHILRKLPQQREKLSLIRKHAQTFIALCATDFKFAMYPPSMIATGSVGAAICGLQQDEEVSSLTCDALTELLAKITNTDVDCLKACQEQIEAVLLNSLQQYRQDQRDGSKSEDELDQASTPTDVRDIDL
For `E10K`, “normalised enrichment score” read 0.163.
`T2M` — result for “normalised enrichment score”: 0.416.
`S13C`: “normalised enrichment score” -0.074.
`T2N` — result for “normalised enrichment score”: 0.157.
Under “normalised enrichment score”, `R6Q` is recorded as 0.44.
Under “normalised enrichment score”, `F8N` is recorded as 0.178.

Block 2
Target: RNA binding protein fox-1 homolog 2, RRM domain, GST-SBP tag (RBFOX2, Homo sapiens, UniProt O43251-10, residues 100-194)
Method: RNA Bind-n-Seq
Molecule type: RNA
Medium: in vitro
Concentration: 365 nM
Notes: natural RNA segment, single round, ends assumed
Reference: no-protein control
Reading: higher = stronger binding
Shared flanks, not repeated: GGGAGUUCUACAGUCCGACGAUC … UGGAAUUCUCGGGUGCCAA
Target sequence (chain): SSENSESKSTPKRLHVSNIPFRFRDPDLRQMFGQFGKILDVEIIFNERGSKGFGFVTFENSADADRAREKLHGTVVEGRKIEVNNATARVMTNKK
For `CAGGGUUUGGGCCUAAUGGUUUUUACUAAAUUACUCCCCUCCUGCUCUCCGAGAAAGGGGAGCCAGAGCCGCUCACUGUGGUUCUGUUCCGACCUUGAAGGGGCGGUAUU`, “RBNS enrichment (R)” read 0.257.
`CAGCAGCGCACGCCUCCGAAGCCUGCGGCCUCGCUUGAAGGAGGGCGUCGCCGGAAACCCAGGGAACCUCUCUGAAGUGACACCUCACCCCUACACACCGUCCGUUCACC` — result for “RBNS enrichment (R)”: 0.696.
`CGUUCAACAAAGGACCAGCAGCAUCUUAUCAGGCGAUCCUCAGAGGCUCCAAGGAGCAUUGGAGAGAAUGCCCCUUUCUGGGCUUGAUGUCUUGGUUUUGGUUUAAUACC`: “RBNS enrichment (R)” 1.01.
`UUUCCCCUCGCCCUAGGGCUCCCUUGCCGCCCUCCUGCAGUAUUUAUGGCCUCGUCCUCCCCACCUAGGCCACGUGUGAGCUGCUCCUGUCUCUGUCUUAUUGCAGCUCC`: “RBNS enrichment (R)” 0.871.
Under “RBNS enrichment (R)”, `AGCCUGGUUAGAACUUGUUUCUAGUGCUAAUGCUCUGACCUAGUAUUUCCAUUGGAGAUCACUGUCCAGCCAUCUAAAGCCCUGUUAUUCGAGUCAAGCUUAUCCCCAUU` is recorded as 0.279.
`UUUUAAAUUGUACGAAGGGGAAUUUAAAAAUACGUAACUGCUGUUUAUACAUCAGCUCCUUACUGCUUAUUAAUCUGUAUUGUACCCACGAUAUCAGGAGUGAAGCAGAC` — result for “RBNS enrichment (R)”: 0.382.
For `AGGUCUGAGCUUGUGAAAAGAAAGUGGUUGGUCUGAGGUUGGAGGAAGCUGAAUGGAAUCUGACGGUUGGGAGUGGUGGAAAUUGGAAGGAUACCAGGAGGUAUUUGGGA`, “RBNS enrichment (R)” read 1.33.

Block 3
Target: MAFG, bZIP domain (human)
Method: DHFR protein complementation
Medium: yeast
Notes: single substitutions, most at no-binding floor
Reference: wild-type JUN-FOS pair
Reading: higher = stronger binding
Parent: JUN, bZIP domain (human); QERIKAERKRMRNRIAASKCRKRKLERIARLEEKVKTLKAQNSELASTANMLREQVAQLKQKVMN; partner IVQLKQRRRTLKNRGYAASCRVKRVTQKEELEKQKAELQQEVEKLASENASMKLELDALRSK
`A29H` has a binding fitness of -1.4 natural log.
With `E54L` the binding fitness was -1.41 natural log.
The binding fitness of `I28N` is reported as -1.45 natural log.
With `V35A` the binding fitness was -1.55 natural log.
The binding fitness of `E44T` is reported as -1.54 natural log.

Further values, each from its own experiment
The fold induction of `PhoQ, residues 284 288 289 292 302 303 DDMDFR` is reported as 0.784 (PhoP, residues 12 14 15 18 19 SMASL (Escherichia coli, UniProt P23836); Sort-seq, refers to: YFP reporter; E. coli; PhoQ-PhoP variant library, together with: 10 µM Mg2+; reference: high Mg2+ state, higher = stronger signaling).

Some of these lines once more (block 2):
Under “RBNS enrichment (R)”, `AGCCUGGUUAGAACUUGUUUCUAGUGCUAAUGCUCUGACCUAGUAUUUCCAUUGGAGAUCACUGUCCAGCCAUCUAAAGCCCUGUUAUUCGAGUCAAGCUUAUCCCCAUU` is recorded as 0.279.
`UUUUAAAUUGUACGAAGGGGAAUUUAAAAAUACGUAACUGCUGUUUAUACAUCAGCUCCUUACUGCUUAUUAAUCUGUAUUGUACCCACGAUAUCAGGAGUGAAGCAGAC` — result for “RBNS enrichment (R)”: 0.382.
For `AGGUCUGAGCUUGUGAAAAGAAAGUGGUUGGUCUGAGGUUGGAGGAAGCUGAAUGGAAUCUGACGGUUGGGAGUGGUGGAAAUUGGAAGGAUACCAGGAGGUAUUUGGGA`, “RBNS enrichment (R)” read 1.33.
